Published values collected from several papers.
Protocols differ between the studies behind these lines. ± marks the error that the study gave.
UniProt P20309, sequence (whole entry, looked up): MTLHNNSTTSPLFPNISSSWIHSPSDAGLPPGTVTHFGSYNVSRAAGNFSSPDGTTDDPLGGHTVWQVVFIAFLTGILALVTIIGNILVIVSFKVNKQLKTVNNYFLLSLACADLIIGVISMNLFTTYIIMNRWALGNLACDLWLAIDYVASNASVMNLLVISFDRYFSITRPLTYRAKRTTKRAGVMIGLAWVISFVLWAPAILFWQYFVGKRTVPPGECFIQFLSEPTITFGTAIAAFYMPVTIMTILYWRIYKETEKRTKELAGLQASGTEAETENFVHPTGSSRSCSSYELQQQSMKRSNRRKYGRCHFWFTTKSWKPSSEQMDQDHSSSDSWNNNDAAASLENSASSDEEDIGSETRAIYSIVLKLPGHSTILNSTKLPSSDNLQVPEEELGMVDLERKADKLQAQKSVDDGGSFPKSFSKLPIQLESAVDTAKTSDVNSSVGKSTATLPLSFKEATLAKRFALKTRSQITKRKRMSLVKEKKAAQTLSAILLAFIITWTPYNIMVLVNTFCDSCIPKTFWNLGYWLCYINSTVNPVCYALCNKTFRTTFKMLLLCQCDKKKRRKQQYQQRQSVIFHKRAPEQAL

Compound	tested on	test	system	conditions	how to read	endpoint	value
Cc1nc(Nc2ncc(C(=O)Nc3c(C)cccc3Cl)s2)cc(N2CCN(C(=O)CN)CC2)n1	KU812	cell growth, CCK-8	–	20 nM	–	onset of growth inhibition	3 h
C[C@H](NC(=O)[C@H](CCC(N)=O)NC(=O)[C@H](Cc1c[nH]c2ccccc12)NC(=O)[C@@H](N)CCCNC(=N)N)C(=O)N[C@@H](CCCNC(=N)N)C(=O)N[C@@H](Cc1c[nH]c2ccccc12)C(=O)N[C@@H](CCC(N)=O)C(=O)N[C@@H](Cc1c[nH]c2ccccc12)C(=O)N[C@@H](CCCNC(=N)N)C(N)=O	MDA-MB-468	MTT	–	concentration not given, 48 h, 37 °C, 5% FBS	reference: untreated cells	viability	51 ± 9%
C=CC(OC(C)=O)c1ccc(OC(C)=O)c(OC)c1 (centres unmarked)	MDA-MB-231	Western blot	–	concentration not given, 24 h	–	integrin beta1 decrease	37.1%
Cc1sc2ncn(CC(=O)N3CCCC3)c(=O)c2c1-c1cccc(Br)c1	mouse cultured cortical neurons	refers to: intracellular Ca2+	–	50 µM, added: A23187 10 µM	–	calcium signal increase	no effect
CC(C)c1cnc(-c2cc(Cl)ccc2F)cc1Nc1ccncc1C(=O)NC(CO)CO	VCaP	enzalutamide-induced SMAD2 phosphorylation, inhibitor, Western blot	–	concentration not given, added: enzalutamide and high-concentration dihydrotestosterone	–	pSMAD2 level	inhibited
CC1OC2OC3C4=C(OC3(C)C12O)C(=O)c1c(O)cccc1C4=O (centres unmarked)	MDA-MB-231	annexin V/PI flow cytometry	–	4 µg/mL, 48 h	–	early apoptotic cells	58.4%
CC(=O)OC[C@H]1O[C@@H](Sc2sc(C(=O)c3ccc(C)cc3)c(N)c2-c2nc3ccccc3s2)[C@H](OC(C)=O)[C@@H](OC(C)=O)[C@@H]1OC(C)=O	Malme-3M	SRB	–	10 µM, 48 h	reference: untreated	growth	43.9%
Cc1cc2c(c(=O)o1)C=C1CCC(C(C)CNCc3ccc(O)cc3)CC1O2 (centres unmarked)	MC65	inhibitor	–	concentration not given, tetracycline-free	–	ROS production	inhibited
COc1cc(CNC(=O)C[C@H](C)CCC=C(C)C)ccc1OCc1cn(-c2cccc(Cl)c2)nn1	SK-MEL-28 melanoma cells	SRB	–	10 µM, 48 h	–	growth percent	76.6%
NS(=O)(=O)c1ccc(-n2cc(Cn3c(=O)c(Cc4ccccc4)nc4ccccc43)nn2)cc1	HCT-116	qRT-PCR, refers to: p53	–	concentration not given, 72 h	reference: untreated	mRNA level	4.53 ± 0.063 fold
COc1cc(CNC(=O)C[C@H](C)CCC=C(C)C)ccc1OCc1cn(-c2ccc(C#N)cc2)nn1	NCI/ADR-RES	SRB	–	10 µM, 48 h	–	growth	14%
COc1cc(/C=C/C(=O)/C=C(O)/C=C/c2ccc(OCC(=O)N3CCOCCOCCOCCOCCOCC3)c(OC)c2)ccc1OCC(=O)N1CCOCCOCCOCCOCCOCC1	SK-LU-1	cell growth or viability, SRB	–	5 µM	–	inhibition	39.3%
O=C(N1CCCC1)n1cc(-c2ccc(-c3ccccc3)cc2)nn1	mouse T-cells	N-terminal labeled proteins, N-terminal enrichment proteomics, refers to: CCDC97	–	1 nM, 6 h	reference: DMSO	SILAC ratio	1.26 ± 0.16
CC(=O)Oc1ccccc1C(=O)[O][Pt]([NH2])([NH2])([Cl])([Cl])[O]C(=O)CCCc1ccccc1	six human cancer lines	cytotoxicity, MTT	–	–	reference: oxaliplatin	IC50 fold lower	7 fold
C=C[C@H](OC(C)=O)c1ccc(OC(C)=O)cc1	MDA-MB-231	Western blot	–	IC50, 24 h	reference: untreated	Bcl-xL protein decrease	30 to 50%
CNC(=O)c1ccccc1Oc1nc(Nc2cc(OC)c(OC)c(OC)c2)ncc1Br	rat primary adipocytes	immunoblot, refers to: phospho-Akt, AS160, GSK3α/β	–	dose not given, added: insulin 10 nM	–	Akt pathway phosphorylation	no effect
COc1cc(CNC(=O)C[C@H](C)CCC=C(C)C)ccc1OCc1cn(-c2ccccc2Cl)nn1	NCI-H522	SRB	–	10 µM, 48 h	–	growth percent	51.4%
CSc1nc(Nc2ccc(/C(C)=N/NC(=O)c3ccc([N+](=O)[O-])cc3[N+](=O)[O-])cc2)c(C#N)c(-c2ccccc2)n1	HCT-116	flow cytometry	–	1.14 µM, 24 h	–	S phase cells	36.2%
Cc1cnc2c(ccc3c(C)c(C)cnc32)c1C.O=C([O-])Cc1ccccc1Nc1c(Cl)cccc1Cl.O=C([O-])Cc1ccccc1Nc1c(Cl)cccc1Cl.[Mn+2]	HMLER-shEcad	–	–	0.25 µM, 3 h	reference: untreated	intracellular ROS level	2 fold
CCOC(=O)C1NC(c2ccc[n+](C)c2)C23c4c5c6c7c8c9c(c%10c%11c2c2c4c4c%12c5c5c6c6c8c8c%13c9c9c%10c%10c%11c%11c2c2c4c4c%12c%12c5c5c6c8c6c8c%13c9c9c%10c%10c%11c2c2c4c4c%12c5c6c5c8c9c%10c2c45)C713 (centres unmarked)	BC-3	reporter gene, refers to: TCF4 Wnt/β-catenin reporter	–	20 µM, 24 h	reference: DMSO	remaining activity	60%
COc1cc(CNC(=O)C[C@H](C)CCC=C(C)C)ccc1OCc1cn(-c2ccc(Cl)c(Cl)c2)nn1	SK-MEL-28 melanoma cells	SRB	–	10 µM, 48 h	–	growth percent	89.3%
CC(Cc1ccc(Cl)cc1)=C(c1ccc(Cl)cc1)c1ccc(OCCN(C)C)cc1	Malme-3M	cell growth or viability, SRB	–	–	–	GI50	3.68 µM
COc1cc(CNC(=O)C[C@H](C)CCC=C(C)C)ccc1OCc1cn(-c2ccc(F)cc2)nn1	NCI-H522	SRB	–	10 µM, 48 h	–	growth percent	66.4%
CC(=O)OC[C@H]1O[C@@H](Sc2sc(C(=O)c3ccc(Br)cc3)c(N)c2-c2nc3ccccc3s2)[C@H](OC(C)=O)[C@@H](OC(C)=O)[C@@H]1OC(C)=O	NCI/ADR-RES	SRB	–	10 µM, 48 h	–	growth	57.9%
O=Cc1c(O)ccc2ccccc12	HUVEC	RNA sequencing, refers to: POLE2	–	75 µM, 24 h	reference: DMSO	log2 fold change	-3.14
COc1cc2c(Nc3ccc(NC(=O)c4ccccc4)cc3)ncnc2cc1OCCCN1CCOCC1	DLD-1, mitotic	refers to: phospho-histone H3	–	concentration not given	–	histone H3 phosphorylation	not detected
COc1ccc([C@@H]2CC(=O)c3c(O)cc(O[C@@H]4O[C@H](CO[C@@H]5O[C@@H](C)[C@H](O)[C@@H](O)[C@H]5O)[C@@H](O)[C@H](O)[C@H]4O)cc3O2)cc1O	A549	trypan blue exclusion	–	50 µg/mL, 24 h	–	cell count	15000 ± 505

Compound	tested on	test	system	conditions	how to read	endpoint	value
Cc1cc(/C=C/c2ccc(O)c(O)c2)[nH]n1	CHO	DCF-DA	–	10 µM, 2 h pretreatment, read 30 min post-irradiation, added: 2 Gy radiation	reference: irradiated control	reduction in ROS level	43%
COc1cc(CNC(=O)C[C@H](C)CCC=C(C)C)ccc1OCc1cn(-c2cccc(C(F)(F)F)c2)nn1	SK-MEL-28 melanoma cells	SRB	–	10 µM, 48 h	–	growth percent	91.5%
CC/C=C\C/C=C\C/C=C\C/C=C\C/C=C\C/C=C\CCC(=O)Nc1ccn(C2OC(CO)C(O)C2(F)F)c(=O)n1 (centres unmarked)	OVCAR-4	NCI60 screen	–	–	–	TGI	28.8 µM
COc1ccc([C@@H]2CC(=O)c3c(O)cc(O[C@@H]4O[C@H](CO[C@@H]5O[C@@H](C)[C@H](O)[C@@H](O)[C@H]5O)[C@@H](O[C@H]5O[C@H](CO)[C@@H](O)[C@H](O)[C@H]5O)[C@H](O)[C@H]4O)cc3O2)cc1O	A549	cell migration, scratch	–	150 µg/mL, 48 h	–	gap closure	4.37 ± 0.75%
COc1cc(CNC(=O)C[C@H](C)CCC=C(C)C)ccc1OCc1cn(-c2ccc([N+](=O)[O-])cc2)nn1	SK-MEL-28 melanoma cells	SRB	–	10 µM, 48 h	–	growth percent	87.8%
CCCC[C@H](NC(=O)COCCOCCNC(=O)CN1CCN(CC(=O)O)CCN(CC(=O)O)CC1)C(=O)N[C@H]1CC(=O)NCCCC[C@@H](C(N)=O)NC(=O)[C@H](Cc2c[nH]c3ccccc23)NC(=O)[C@H](CCCNC(=N)N)NC(=O)[C@@H](Cc2ccccc2)NC(=O)[C@H](Cc2c[nH]cn2)NC1=O [copper-64 labelled]	–	–	C57 mice, skin	intravenous, 0.37 MBq, 0.5 h	–	tissue uptake	4.37 ± 1.12 %ID/g
N#Cc1ccc(C=O)o1	human sickle cell (SS) red blood cells	RBC morphology	–	2 mM, 2 h, 37 °C, hypoxia 2.5% O2, haematocrit 20%	reference: untreated	inhibition of sickling	48%
COC(=O)CCNC(=O)CNC(=O)CCn1nc(Cc2ccccc2)c2ccccc2c1=O	HCT-116	–	–	concentration not given	–	G1 phase cells	41.3%
O=C(CSc1nc2ccccc2s1)Nc1nonc1[N+](=O)[O-]	Ramos	LFQ mass spectrometry	–	10 µM, 8 h	–	overlap with Myc targets	15.2%
CCCCc1ccc(C(=O)N[C@@H](CO)C(=O)N[C@H](C(=O)N2CCC[C@H]2C(=O)N[C@@H](CC(N)=O)C(=O)NCC(=O)N[C@@H](CC(C)C)C(=O)O)[C@@H](C)OP(=O)(O)O)cc1	HeLa, QQ transfected	–	–	30 µM, 24 h	–	apoptotic cells	55.5%
CCNc1ccc(-c2nc3ccccc3n3cccc23)cc1	HEK293 DR-GFP reporter	homologous recombination	–	concentration not given	–	inhibition	~50%
O=C1Nc2ccc(F)cc2C1=Cc1c(Cl)[nH]c2c1ccc1ccccc12	prostate cancer subpanel of NCI-60	–	–	48 h	–	TGI	9.77 µM
CCn1nc(C(C)(C)C)cc1Nc1nc(-c2ccc(-n3cnc(C)c3)c(F)c2)cs1	SH-SY5Y-APP	sandwich ELISA	–	100 pM to 10 µM, 24 h	–	total amyloid beta level	no effect
C=CC(OC(C)=O)c1cc(OC)c(OC(C)=O)c(OC)c1 (centres unmarked)	MDA-MB-231	Western blot	–	concentration not given, 24 h	–	integrin beta1 decrease	93.3%
CCN(CC)CC(=O)Nc1cccc(-n2cc(-c3ccc4ccc(-c5cn(-c6cccc(NC(=O)CN(CC)CC)c6)nn5)cc4c3)nn2)c1	786-0 cells	Western blot	–	5 x IC50, 4 h, hypoxia	reference: untreated	HIF-2α protein level	51%
CC(=O)N1CCC[C@H]1C(=O)N[C@@H](CC/C=C/C(=O)N(C)C)C(=O)N[C@@H](CCNC(=O)CCCCCN1C(=CC=CC=CC2=[N+](C)c3ccc(S(=O)(=O)[O-])cc3C2(C)C)C(C)(C)c2cc(S(=O)(=O)O)ccc21)C(=O)N1CCC[C@H]1C(=O)N[C@@H](Cc1ccccc1)C(N)=O	NRK cells	refers to: RFP-LAMP-1	–	90 min, added: α2-macroglobulin	–	Pearson colocalization coefficient	0.426
CCCC(C)NC(=O)C(Nc1ccccc1C(=O)c1ccccc1)c1cn(C)c2ccccc12 (centres unmarked)	BE(2)-C	cell growth or viability, MTT	–	72 h	–	GI50	5.4 µM
CCCC(CCC)C(=O)[O][Pt]([NH2])([NH2])([Cl])([Cl])[O]C(=O)c1ccccc1OC(C)=O	HEK293 and BCPAP	cytotoxicity, MTT	–	–	reference: IC50 HEK293 over IC50 BCPAP	selectivity index	59
COc1ncccc1CN(C(=O)OCc1ccc([N+](=O)[O-])cc1)[C@H]1C[C@@H]1c1ccccc1 (racemic)	THP-1 cells	colony forming unit	–	–	reference: EC50 wild type over NTR-expressing	selectivity ratio	4 ± 1
CCNC(=O)OCc1c(COC(=O)NCC)c(-c2ccc(OC)cc2)n2c1Cc1ccccc1-2	H460 and PC-9/gef B4	Western blot, refers to: FANCD2	–	10 to 80 µM, 24 h	–	protein level	increased
COc1cc(CNC(=O)C[C@H](C)CCC=C(C)C)ccc1OCc1cn(-c2ccccc2[N+](=O)[O-])nn1	NCI/ADR-RES	SRB	–	10 µM, 48 h	–	growth	36%
CC(C)c1c(-c2cccc3[nH]ccc23)[nH]c(C(=O)O)c1-c1c(Cl)ccc2[nH]ccc12	primary CD34+ AML cells	–	human	25 µM, 12 days	–	CD86-positive cells	97%
Cc1c(C)c(C)[c-](C)c1C.[C-]#[O+].[C-]#[O+].[C-]#[O+].[Cl-].[Cl-].[Cl-].[Ir+3].[Re+].c1cnc(-c2ncccn2)nc1	MDA-MB-468	JC-1 flow cytometry	–	25 µM	–	cells with depolarised mitochondria	30.6%
C[C@H](N)C(=O)N[C@@H](Cc1c[nH]c2ccccc12)C(=O)N[C@@H](CCC(N)=O)C(=O)N[C@@H](Cc1c[nH]c2ccccc12)C(=O)N[C@@H](CCCNC(=N)N)C(=O)N[C@@H](Cc1c[nH]c2ccccc12)C(=O)N[C@@H](CCC(N)=O)C(=O)N[C@@H](Cc1c[nH]c2ccccc12)C(=O)N[C@@H](CCCNC(=N)N)C(N)=O	young human fibroblasts primary	MTT	–	concentration not given, 2 h, 37 °C, 5% FBS	reference: untreated cells	viability	99 ± 2%
CCOC(=O)C/C(C)=N/NC(=O)c1nc2ccccc2n(C)c1=O	MCF7, HepG2 and HCT-116	cell growth, MTT	–	10 µM, range over three lines	–	growth inhibition	≥ 88.7%
NCc1cc(C(=O)NCCN2CCC(OC(=O)C(c3ccccc3)c3ccccc3)CC2)cc(C(=O)NCCN2CCN(CCCCC3CCN(CC(=O)N4c5ccccc5NC(=O)c5ccccc54)CC3)CC2)c1	CHRM3 (Homo sapiens, UniProt P20309)	ligand displacement, radioligand	–	–	–	Ki	0.0631 µM
